Experimental data collected from several papers.
Parts stem from different laboratories: compare values within a part only.

Set 1 — method: universal PBM; molecule type: double-stranded DNA, one strand shown; matrix: in vitro; concentration: not given; direction: higher = stronger binding
Target: Sal-like protein 4, full length isoform B (SALL4, Homo sapiens, UniProt Q9UJQ4-2, residues 1-616)
Setting: 8-mer, flanks averaged, mean of replicates
Construct (chain): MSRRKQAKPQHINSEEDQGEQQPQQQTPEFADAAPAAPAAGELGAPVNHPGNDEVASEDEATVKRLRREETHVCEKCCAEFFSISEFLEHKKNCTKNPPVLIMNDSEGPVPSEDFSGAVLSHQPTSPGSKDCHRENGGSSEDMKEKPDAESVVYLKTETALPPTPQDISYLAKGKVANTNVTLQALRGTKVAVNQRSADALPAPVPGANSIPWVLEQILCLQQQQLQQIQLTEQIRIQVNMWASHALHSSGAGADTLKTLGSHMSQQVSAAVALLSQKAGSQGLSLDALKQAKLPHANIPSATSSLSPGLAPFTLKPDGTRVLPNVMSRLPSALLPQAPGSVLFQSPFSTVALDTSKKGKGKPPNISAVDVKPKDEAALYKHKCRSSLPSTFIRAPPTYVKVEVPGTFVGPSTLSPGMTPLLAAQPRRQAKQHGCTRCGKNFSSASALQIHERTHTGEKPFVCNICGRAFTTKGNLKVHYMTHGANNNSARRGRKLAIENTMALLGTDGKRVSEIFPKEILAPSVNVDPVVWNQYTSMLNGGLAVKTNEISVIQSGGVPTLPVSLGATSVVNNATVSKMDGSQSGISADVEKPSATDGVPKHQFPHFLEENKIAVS
Sequence | E-score
AAGGGCAA | -0.105
CGCCGTAC | -0.127
ACCCAGGG | -0.307
ATGTCTCG | -0.0821
CCCTTAAC | -0.091
ATAGTAAA | 0.228
CGTGTGCA | -0.113
CCAGCCGC | -0.319
CAGTCACA | 0.0112
GAACAGCC | -0.27
CTTGTCCC | -0.162
AGATAACT | 0.136
GGAGTCAC | -0.22
GCCGTTGA | 0.022
TCGGGTCA | -0.139
ATTTGGGC | 0.0134
CGCACAGA | -0.0605
ACTCAACT | 0.0251
CGCTCGAG | -0.102
AGTTACGG | -0.00418
CCGGAAAA | -0.0198

Set 2 — method: competition protein-binding microarray; molecule type: double-stranded DNA, one strand shown; matrix: in vitro; concentration: 2 µM; with: Cbf1 competitor, 0.05 µM; direction: higher = stronger binding; all sequences stand within: … GTCTTGATTCGCTTGACGCTGCTG
Target: Phosphate system positive regulatory protein PHO4, full length, GST-tagged (PHO4, Saccharomyces cerevisiae, UniProt P07270, residues 1-312)
Setting: whole 60-bp probe, lowest competitor level
Residues (chain): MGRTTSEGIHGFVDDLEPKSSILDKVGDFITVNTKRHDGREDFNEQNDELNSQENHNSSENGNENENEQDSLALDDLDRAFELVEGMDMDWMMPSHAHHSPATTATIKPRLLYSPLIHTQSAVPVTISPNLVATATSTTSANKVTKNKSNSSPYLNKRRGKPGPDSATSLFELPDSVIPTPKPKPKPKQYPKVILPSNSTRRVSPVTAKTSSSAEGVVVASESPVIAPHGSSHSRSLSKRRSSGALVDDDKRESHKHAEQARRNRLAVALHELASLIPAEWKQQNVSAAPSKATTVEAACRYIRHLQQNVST
Sequence | fluorescence intensity
CCCGCGACTCTAAAGCACGGGATTGAAGTCAGCTTC | 8670 a.u.
GGACGAGAAATACACAGATTCAGTAAGATTTGTGAG | 3980 a.u.
AAAGCGGTAATTTGCTATGTGGGTGCAGATATCTAT | 4210 a.u.
CTTTCCCGATCTTGGTCGGTGGGTGTAGCACATTTG | 4060 a.u.
CATACCCAACCTTTTCACGTGCCGTAAGATATTTGT | 15800 a.u.
TATCCTAAATGCCATCACGATGATAAATCCTCCGCC | 6530 a.u.
ATGAAGTGAAATCGGCACGTGGAGGTCAGAAGAGTC | 19400 a.u.
ATCTTGTGAAACTCCGTCGTGCTTTGGATAGAGCCT | 8260 a.u.
CTAACGAAGGTTTGCTGGGTGGGTGACAAGCCAAGT | 3940 a.u.
AATAATATATCTCACCACGTGGGACATTGGGCACTT | 20100 a.u.
CTTTCCCGATCTTGGGGGGTGGGTGTAGCACATTTG | 6420 a.u.
AAATCAATGGGCTCAGCTCATCTTGAAAAGCTCACT | 2230 a.u.
TGCGCAACAACTTGTTACGTGGGTGTATGTCTAGAA | 6650 a.u.
AAAGTAAAATCCCAACACGTGATGGTGTTCGTCTGA | 15500 a.u.
AAAGCGGTAATTTTTCACGTGGAATCAAATATCTAT | 12900 a.u.
CACAGCTCCTGCTGACATGTGCCACTCCTGGAATGC | 11000 a.u.
CTAACGAAGGTTTGAGTCGTGGGTGACAAGCCAAGT | 6320 a.u.
CGTCCTAGTGATTGTAAAGTGGGTGCCATGAGGAAG | 6430 a.u.
CTAACGAAGGTTTGTCTCGTGGGTGACAAGCCAAGT | 9110 a.u.

Set 3 — method: RNA Bind-n-Seq; molecule type: RNA; matrix: in vitro; concentration: 365 nM; relative to: no-protein control; direction: higher = stronger binding
Target: RNA binding protein fox-1 homolog 2, RRM domain, GST-SBP tag (RBFOX2, Homo sapiens, UniProt O43251-10, residues 100-194)
Setting: natural RNA segment, single round, ends assumed
All sequences stand within: GGGAGUUCUACAGUCCGACGAUC … UGGAAUUCUCGGGUGCCAA
Target sequence (chain): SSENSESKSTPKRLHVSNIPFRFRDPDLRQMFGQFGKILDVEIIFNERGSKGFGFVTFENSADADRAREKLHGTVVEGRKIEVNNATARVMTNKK
Sequence | RBNS enrichment (R)
AGAGGUAGCUGUGGUGUUGAAACACUGGACUUGGAUAUGGGGUGCUGGGAUCGAUUCCUAGCUUUACCACUAACUAGCUGUGUGGCCUUGAGUAAAUCCCGUUACCUCUC | 0.308
UUUUUUAACCACCUCUGAUUUCCAACUUAGUGAUGUGGUAAUGAAAUUCGUUUGUCUUCAAUAUAGUUUGAAGAUUAGUCAUUCCAUGAAGGAACAGCCUCUUGAGCUGG | 0.309
GGGGGAGAAGCUGAAAGAUAAGGACUCAACCCAAGUCAUUUGUCUUCUUUCCUGCUAUGCUGUGAGCUACUGAGCUUUACAGCCAUGAAAACUAUUGUAGGCUCCCUCGC | 0.222
AUAAUGCUAGAUGAAGCUGUGAACCCCCCCCCCCCCUCCUGCUGAUAGAGCAGGGCAUGGGUGCUGGCCUCAGUGCUCAGCCUGCUCUUUAAUAAAGGUACCUCUUUUCU | 1.15
AUUCACCUAGACUUUUUUAGAUUUACUACUAGGAAACCUUCCUCAUAUGAAUAACCAUUUAUAUGUGUUUUGCUUAAAGUAUUCCAAUGCCUAUUUUCCAAGCACAGUUC | 0.534
GUUUUAAGAAAAUGUAGUGCCUCGUGGCUCCCUGGUUUAGUAACUUGGAGAGACAGUCUGUAGGAAAAAGAUAAUCUAAAAAAAGGUGUUAGCCUUCCUUGAAGUAUUUG | 0.469
CCAGGAUGCCCAAACAGCCGCACAGGUGUCCUGUGCUUCCUGUGAGACUUCCUGGGGGAAAUAUACAAACUAAUAUAUUUUUUAAUGUUUACGUCAUUUACACUGCUGCU | 0.408
GAGAGGUUCUGUAGAAUCCGAGCCUAGCACCCCAAAGUCAUGCACCCAGUAUCCUCUUGUAUGACUGUAUAUGUCUAUGUCUGGGAUCCAGGGCAAAUGUGAAUUUUCUU | 0.258

Set 4 — method: protein-binding microarray; molecule type: hairpin DNA; matrix: in vitro; concentration: not given; relative to: not given; direction: higher = stronger binding
Target: Hepatocyte nuclear factor 3-beta, forkhead domain (FOXA2, Homo sapiens, UniProt Q9Y261, residues 142-269)
Setting: whole hairpin DNA, median over replicate spots
Target sequence (chain): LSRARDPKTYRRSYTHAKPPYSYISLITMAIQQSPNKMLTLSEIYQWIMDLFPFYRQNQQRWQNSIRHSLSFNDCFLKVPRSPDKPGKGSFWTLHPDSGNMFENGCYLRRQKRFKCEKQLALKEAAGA
Sequence | median fluorescence [a.u.]
GAGGCCATTCAAACAACGCCTCCTGGCGTTGTTTGAATGGCCTCACACTC | 2970
GAGGCCAAGTAAACAACGCCTCCTGGCGTTGTTTACTTGGCCTCACACTC | 4760
GAGGCCACGTAAACAACGCCTCCTGGCGTTGTTTACGTGGCCTCACACTC (5mC at 8 36) | 3820
GAGGCCATGCAACCAACGCCTCCTGGCGTTGGTTGCATGGCCTCACACTC | 3330
GAGGCCATGTAAAGAACGCCTCCTGGCGTTCTTTACATGGCCTCACACTC | 3090
GAGGCCATGGAACCAACGCCTCCTGGCGTTGGTTCCATGGCCTCACACTC | 3310
GAGGCCATCGAACCAACGCCTCCTGGCGTTGGTTCGATGGCCTCACACTC (5mC at 9 35) | 3220
GAGGCCATGTAACCCGCGCCTCCTGGCGCGGGTTACATGGCCTCACACTC (5mC at 15) | 3300
GAGGCCATGGAAACAACGCCTCCTGGCGTTGTTTCCATGGCCTCACACTC | 3150
GAGGCCACGCAAACAACGCCTCCTGGCGTTGTTTGCGTGGCCTCACACTC (5mC at 8) | 3650
GAGGCCGTGTAACCAACGCCTCCTGGCGTTGGTTACACGGCCTCACACTC (5mC at 38) | 3120
GAGGCCATGCAAACACGGCCTCCTGGCCGTGTTTGCATGGCCTCACACTC (5mC at 16) | 3360
GAGGCCACGCAAACAACGCCTCCTGGCGTTGTTTGCGTGGCCTCACACTC (5mC at 36) | 3660
GAGGCCATCGAACCAACGCCTCCTGGCGTTGGTTCGATGGCCTCACACTC (5mC at 9) | 3230
GAGGCCATGCAAACACGGCCTCCTGGCCGTGTTTGCATGGCCTCACACTC (5mC at 28) | 3560
GAGGCCATGCAAACACGGCCTCCTGGCCGTGTTTGCATGGCCTCACACTC (5mC at 16 28) | 3510
GAGGCCATGTATACAACGCCTCCTGGCGTTGTATACATGGCCTCACACTC | 3130
GAGGCCATGTAACCACGGCCTCCTGGCCGTGGTTACATGGCCTCACACTC | 2960
GAGGCCATGCGACCAACGCCTCCTGGCGTTGGTCGCATGGCCTCACACTC (5mC at 10 34) | 3220

For quick reference, copied from above (set 2):
Sequence | fluorescence intensity
CCCGCGACTCTAAAGCACGGGATTGAAGTCAGCTTC | 8670 a.u.
GGACGAGAAATACACAGATTCAGTAAGATTTGTGAG | 3980 a.u.
AAAGCGGTAATTTGCTATGTGGGTGCAGATATCTAT | 4210 a.u.
CTTTCCCGATCTTGGTCGGTGGGTGTAGCACATTTG | 4060 a.u.
CATACCCAACCTTTTCACGTGCCGTAAGATATTTGT | 15800 a.u.
TATCCTAAATGCCATCACGATGATAAATCCTCCGCC | 6530 a.u.
ATGAAGTGAAATCGGCACGTGGAGGTCAGAAGAGTC | 19400 a.u.
ATCTTGTGAAACTCCGTCGTGCTTTGGATAGAGCCT | 8260 a.u.
CTAACGAAGGTTTGCTGGGTGGGTGACAAGCCAAGT | 3940 a.u.
AATAATATATCTCACCACGTGGGACATTGGGCACTT | 20100 a.u.
